Published values of several laboratories.
Protocols differ between the studies behind these lines. Values joined by “and” are separate records of one study, mostly repeats; a detail may differ. ± gives the spread as reported.

SMILES | test | system | setting | how to read | endpoint | value
COc1cnc2cccc(N3CCc4c(cc(Cn5ccnc5)cc4-c4cn(C)nc4C(F)(F)F)C3=O)c2c1 |  | BALB/c nude mice, MV4-11 xenograft | intraperitoneal, 100 mg/kg, day 24 |  | tumour volume | 200 mm3 and 77 mm3 and 178 mm3 and 135 mm3 and 106 mm3 and 167 mm3
CC(C)OC(=O)[C@H](CO)NCc1cc(Cl)c(OCc2cccc(-c3ccccc3)c2Br)cc1OCc1cccnc1 |  | hPD-L1 MC-38 tumour, humanised hPD-1 C57BL/6 mouse | oral, 10 mg/kg × 21, day 20 | relative to: vehicle | tumour volume T/C | 31.7%
O=C(O)c1cccc(CN2Cc3cccc(n3)CN(Cc3cccc(C(=O)O)n3)Cc3cccc(n3)C2)n1 | HPLC | water | 25 °C, Mn complex dissociation, added: 25 equiv Zn2+ |  | transmetallation rate constant | 0.0001 s⁻¹
CC(=O)[O-].O.[Cu+2].[O-]c1ccc(Br)cc1C=NCCN1CCOCC1 | nitric oxide scavenging |  | 200 µM |  | inhibition | 43.5%
CCOC(=O)NN | hydrazine ligation kinetics, absorbance |  | concentration not given, 35 s, added: 2-formylphenylboronic acid |  | normalised absorbance | 0.816
CN1CCCNC(=O)c2cccc(c2)C(=O)NCCCN(C)CCCNc2cccc3c2C(=O)c2cccc(c2C3=O)NCCC1 |  | KSN/Slc nude mice, SAS xenograft | dose not given, day 2, 48 h |  | tumour volume | 111 mm3 and 155 mm3 and 28.3 mm3 and 106 mm3
COc1c(Cl)cccc1Nc1c(-c2ccncc2C#C[C@@]2(C)CCCN2C(=O)/C=C/CN(C)C)[nH]c2c1C(=O)NCC2 |  | female NOD/SCID mouse, PDX | 25 mg/kg once daily, 21 days, HER2 YVMA |  | tumour growth inhibition | 118%
CCOC(=O)NCc1ccc(O[C@@H]2O[C@@H](C)[C@H](O)[C@@H](O)[C@H]2O)cc1 | DPPH radical |  | 300 µg/mL |  | radical scavenging | 6.52 ± 1.01%
O=C(NCC1OC2CCC=CCCC2O1)c1ccc(F)nc1 (stereo not drawn) | IEDDA cycloaddition, substrate, stopped-flow spectrophotometry | water/methanol 45:55 | 0.5 mM, 298 K, added: 3,6-di(2-pyridyl)-tetrazine 0.05 mM |  | observed rate constant kobs | 138 ± 2.88 s⁻¹
COc1ccccc1-c1ccncc1C(=O)Nc1nnc(OCc2ccc(Cl)cc2)s1 |  | Brca1 Δ11/Δ11 Polq-/- MEFs, mouse | 10 µM |  | colony survival | 73% and 93.9% and 82.2% and 54% and 76.1% and 56.9%
OCc1ccc(C2NCCc3cc(O)c(O)cc32)o1 (stereo not drawn) | DPPH scavenging, absorbance |  | 30 min, dark |  | IC50 | 14.9 µM
CC[C@H](C)[C@@H](C(=O)N[C@@H](CC(C)C)C(=O)N[C@@H](CO)C(=O)N[C@@H](CO)C(=O)N[C@H](C(=O)N[C@@H](CCC(=O)O)C(=O)N[C@H](C(=O)NCC(=O)N[C@@H](CO)C(=O)N[C@@H](CC(N)=O)C(=O)N[C@H](C(=O)N1C[C@H](O)C[C@H]1C(N)=O)[C@@H](C)O)C(C)C)[C@@H](C)O)N(C)C(=O)[C@H](C)NC(=O)CN(C)C(=O)[C@H](Cc1ccccc1)NC(=O)[C@H](CO)NC(=O)[C@H](CO)NC(=O)[C@H](CCCNC(=N)N)NC(=O)[C@H](CCC(N)=O)NC(=O)[C@H](CC(C)C)NC(=O)[C@H](Cc1ccccc1)NC(=O)[C@H](CC(=O)O)NC(=O)[C@H](C)NC(=O)[C@H](CC(C)C)NC(=O)[C@H](CCCNC(=N)N)NC(=O)[C@H](CCC(N)=O)NC(=O)[C@@H](NC(=O)[C@H](C)NC(=O)[C@@H]1CSSC[C@H](NC(=O)[C@H](CCCNC(=N)N)NC(=O)CC[C@H](NC(=O)CCCCCCCCCCCCCCCCCCC(=O)O)C(=O)O)C(=O)N[C@@H](CC(N)=O)C(=O)N[C@@H]([C@@H](C)O)C(=O)N[C@@H](C)C(=O)N[C@@H]([C@@H](C)O)C(=O)N1)[C@@H](C)O |  | male Sprague-Dawley rats | subcutaneous, 30 nmol/kg single dose, 96 h |  | body weight loss | 10.8 ± 0.4%
CC(CCC(=O)NCc1ccc(C(=O)NO)cc1)C1CCC2C3C(O)CC4CC(O)CCC4(C)C3CCC12C (stereo not drawn) | measured: TUDCA | PCK rat (Pkhd1 mutant), bile | oral gavage, dose not given, 5 months | relative to: total bile acids | relative abundance | 10.3%
CCCCCCCCCCCCCCCC(=O)OCC(CSC[C@H](N)C(=O)N[C@@H](CO)C(=O)N[C@@H](CCCCN)C(=O)N[C@@H](CCCCN)C(=O)N[C@@H](CCCCN)C(=O)N[C@@H](CCCCN)C(=O)NCCCCCC(=O)N[C@@H](CCCCN)C(=O)N[C@@H](CC(C)C)C(=O)N[C@H](C(=O)N[C@@H](Cc1ccccc1)C(=O)N[C@@H](Cc1ccccc1)C(=O)N[C@@H](Cc1ccc2ccccc2c1)C(=O)O)C(C)C)OC(=O)CCCCCCCCCCCCCCC (stereo partly drawn) | OC antibody staining | APP/PS1 transgenic mouse, cortex | intracortical injection, dose not given, 5 d | relative to: injected over adjacent area | Aβ plaque area ratio | 0.428 and 0.71 and 0.444 and 0.74 and 0.584 and 0.439 and 0.56
COCCNCCOc1cc(C)cc(C(C)C)c1 | locomotor activity in dark | Danio rerio larvae, 7 dpf, well of 10 larvae | 10 µM, minute 5, dark |  | third-quartile larval motion | 6.8 ± 0.8 pixels/frame
CN1CCC[C@]1(C)/C=C/S(=O)(=O)NC(=O)Nc1c2c(cc3c1CCC3)CCC2 |  | human, whole blood ex vivo | 25 mg single dose, 3 h, single ascending dose, added: LPS and ATP |  | IL-18 inhibition | 95.8%
COC1CN([C@H]2CC[C@H]([C@@]3(C)Oc4c(Cl)cc(C(=O)NCc5c(SC)cc(C)[nH]c5=O)c(C)c4O3)CC2)C1 | RNA-seq, measured: SLC18A2 | human, whole blood | dose not given, 24 h | relative to: pretreatment baseline | log2 fold change | 1.24
Cc1ccc(C)c(OCC(O)CN2CCN(c3cc(Cl)ccc3C)CC2)c1 (stereo not drawn) | locomotor activity in dark | Danio rerio larvae, 7 dpf, well of 10 larvae | 10 µM, minute 1, dark |  | third-quartile larval motion | 0.2 ± 0.2 pixels/frame
CCC(CC)n1c(Cc2cccs2)nc2cc(C(=O)N[C@@H](CC(=O)O)c3ccccc3)ccc21 |  | mouse, HFpEF model (HFD plus L-NAME) | ip, 20 mg/kg/day, 2 wk |  | myocardial capillary density | increased
COc1cc(O)ccc1CCC(c1ccc(O)cc1)c1cc2c(c(C)c1O)OC(c1ccc(O)cc1)CC2 (mixture of isomers) | measured: eicosapentaenoic acid | human whole blood | 3 µM, added: Escherichia coli |  | amount | 53600 ± 13600 pg/mL blood
COc1ccccc1C1CCN(CCC(=O)Nc2ccc(C)c(C)c2)CC1 | locomotor activity in dark | Danio rerio larvae, 7 dpf, well of 10 larvae | 10 µM, minute 7, dark |  | third-quartile larval motion | 2.3 ± 0.8 pixels/frame
Cc1ccc(S(=O)(=O)NN)cc1 | hydrazine ligation kinetics, absorbance |  | concentration not given, 10 s, added: 2-formylphenylboronic acid |  | normalised absorbance | 0.459
Cc1cc(NC(=O)CCN2CCCCC2)ccc1Br | locomotor activity in dark | Danio rerio larvae, 7 dpf, well of 10 larvae | 10 µM, minute 1, dark |  | third-quartile larval motion | 2.7 ± 0.6 pixels/frame
NNC(=O)Cc1ccccc1 | hydrazine ligation kinetics, absorbance |  | concentration not given, 45 s, added: 2-formylphenylboronic acid |  | normalised absorbance | 0.742

Some of these lines once more:
SMILES | test | system | setting | how to read | endpoint | value
CCOC(=O)NCc1ccc(O[C@@H]2O[C@@H](C)[C@H](O)[C@@H](O)[C@H]2O)cc1 | DPPH radical |  | 300 µg/mL |  | radical scavenging | 6.52 ± 1.01%
O=C(NCC1OC2CCC=CCCC2O1)c1ccc(F)nc1 (stereo not drawn) | IEDDA cycloaddition, substrate, stopped-flow spectrophotometry | water/methanol 45:55 | 0.5 mM, 298 K, added: 3,6-di(2-pyridyl)-tetrazine 0.05 mM |  | observed rate constant kobs | 138 ± 2.88 s⁻¹
COc1ccccc1-c1ccncc1C(=O)Nc1nnc(OCc2ccc(Cl)cc2)s1 |  | Brca1 Δ11/Δ11 Polq-/- MEFs, mouse | 10 µM |  | colony survival | 73% and 93.9% and 82.2% and 54% and 76.1% and 56.9%
